Assay results pooled from the literature.
A part holds a random share of what one study measured.
UniProt P41143, sequence (whole entry, looked up): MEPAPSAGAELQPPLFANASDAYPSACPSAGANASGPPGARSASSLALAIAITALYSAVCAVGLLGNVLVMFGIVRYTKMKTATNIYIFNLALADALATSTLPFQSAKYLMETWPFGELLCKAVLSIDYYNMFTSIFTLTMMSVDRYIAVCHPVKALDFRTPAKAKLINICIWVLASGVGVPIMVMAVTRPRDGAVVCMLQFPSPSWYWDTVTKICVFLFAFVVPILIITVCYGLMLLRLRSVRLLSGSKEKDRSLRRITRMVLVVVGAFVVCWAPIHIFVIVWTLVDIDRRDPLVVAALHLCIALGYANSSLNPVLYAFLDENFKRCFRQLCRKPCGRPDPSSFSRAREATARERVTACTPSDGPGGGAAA
UniProt P25089, sequence (whole entry, looked up): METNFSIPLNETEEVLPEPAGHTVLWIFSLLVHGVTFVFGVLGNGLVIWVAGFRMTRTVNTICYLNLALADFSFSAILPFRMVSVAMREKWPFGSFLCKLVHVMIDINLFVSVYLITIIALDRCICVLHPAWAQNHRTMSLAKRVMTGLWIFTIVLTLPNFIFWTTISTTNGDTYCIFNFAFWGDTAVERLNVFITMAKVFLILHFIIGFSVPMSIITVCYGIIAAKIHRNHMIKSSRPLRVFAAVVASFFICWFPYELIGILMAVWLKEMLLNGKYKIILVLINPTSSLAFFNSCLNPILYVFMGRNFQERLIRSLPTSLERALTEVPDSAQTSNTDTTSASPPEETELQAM
UniProt Q9BZJ8, sequence (whole entry, looked up): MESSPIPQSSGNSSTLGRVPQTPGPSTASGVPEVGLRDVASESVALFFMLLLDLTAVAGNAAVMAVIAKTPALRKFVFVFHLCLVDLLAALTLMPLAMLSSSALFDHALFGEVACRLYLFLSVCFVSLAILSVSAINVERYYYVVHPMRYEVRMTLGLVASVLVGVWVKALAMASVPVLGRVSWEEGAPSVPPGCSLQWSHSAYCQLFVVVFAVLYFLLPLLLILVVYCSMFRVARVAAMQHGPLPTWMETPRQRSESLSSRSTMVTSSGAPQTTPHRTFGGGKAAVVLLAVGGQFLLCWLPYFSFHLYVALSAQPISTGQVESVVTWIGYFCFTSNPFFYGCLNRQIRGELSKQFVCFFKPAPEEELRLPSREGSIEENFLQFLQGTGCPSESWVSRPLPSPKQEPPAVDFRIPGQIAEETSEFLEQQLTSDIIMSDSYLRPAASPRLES
UniProt P25929, sequence (whole entry, looked up): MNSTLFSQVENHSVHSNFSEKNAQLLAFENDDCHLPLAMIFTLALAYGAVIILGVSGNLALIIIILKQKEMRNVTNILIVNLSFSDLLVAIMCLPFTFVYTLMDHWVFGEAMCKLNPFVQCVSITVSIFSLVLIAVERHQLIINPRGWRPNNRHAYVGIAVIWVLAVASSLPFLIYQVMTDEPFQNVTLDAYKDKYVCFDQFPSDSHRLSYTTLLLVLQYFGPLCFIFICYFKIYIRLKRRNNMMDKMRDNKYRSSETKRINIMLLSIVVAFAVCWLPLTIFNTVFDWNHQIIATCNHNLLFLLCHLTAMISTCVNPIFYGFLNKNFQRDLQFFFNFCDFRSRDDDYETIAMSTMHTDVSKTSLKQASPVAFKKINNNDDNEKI
UniProt Q13255, sequence (whole entry, looked up): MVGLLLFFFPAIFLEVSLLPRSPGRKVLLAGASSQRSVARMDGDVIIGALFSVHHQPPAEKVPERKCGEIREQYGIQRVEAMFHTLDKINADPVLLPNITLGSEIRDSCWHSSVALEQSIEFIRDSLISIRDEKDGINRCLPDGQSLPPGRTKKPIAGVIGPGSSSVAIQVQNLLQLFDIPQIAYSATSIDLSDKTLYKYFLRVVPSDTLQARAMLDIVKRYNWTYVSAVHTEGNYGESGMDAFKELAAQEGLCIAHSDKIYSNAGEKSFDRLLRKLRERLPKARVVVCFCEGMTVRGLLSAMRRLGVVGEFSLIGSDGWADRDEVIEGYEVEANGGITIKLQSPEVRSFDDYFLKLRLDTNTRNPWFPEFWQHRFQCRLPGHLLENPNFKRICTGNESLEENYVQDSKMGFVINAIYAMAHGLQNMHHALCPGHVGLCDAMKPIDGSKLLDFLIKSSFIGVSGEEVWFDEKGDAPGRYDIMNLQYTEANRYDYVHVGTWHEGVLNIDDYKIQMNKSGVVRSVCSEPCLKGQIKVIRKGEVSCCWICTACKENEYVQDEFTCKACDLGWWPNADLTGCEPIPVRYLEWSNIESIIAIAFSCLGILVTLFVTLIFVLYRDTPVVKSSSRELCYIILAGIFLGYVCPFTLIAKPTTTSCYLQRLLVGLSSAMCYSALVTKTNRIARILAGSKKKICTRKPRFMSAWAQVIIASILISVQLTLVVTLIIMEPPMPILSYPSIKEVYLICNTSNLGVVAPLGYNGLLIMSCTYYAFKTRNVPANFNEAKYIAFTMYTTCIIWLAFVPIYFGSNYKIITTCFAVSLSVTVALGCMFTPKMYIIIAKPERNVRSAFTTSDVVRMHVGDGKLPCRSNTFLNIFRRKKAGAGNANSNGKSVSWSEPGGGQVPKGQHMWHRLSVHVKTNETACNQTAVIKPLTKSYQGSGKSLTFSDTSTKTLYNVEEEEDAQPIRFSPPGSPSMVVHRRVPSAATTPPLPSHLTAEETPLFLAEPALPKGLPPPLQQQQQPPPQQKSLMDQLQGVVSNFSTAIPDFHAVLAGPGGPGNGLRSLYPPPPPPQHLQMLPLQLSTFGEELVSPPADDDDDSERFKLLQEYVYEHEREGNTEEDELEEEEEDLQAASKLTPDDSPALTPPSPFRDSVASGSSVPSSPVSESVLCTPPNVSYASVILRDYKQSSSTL
UniProt P29376, sequence (whole entry, looked up): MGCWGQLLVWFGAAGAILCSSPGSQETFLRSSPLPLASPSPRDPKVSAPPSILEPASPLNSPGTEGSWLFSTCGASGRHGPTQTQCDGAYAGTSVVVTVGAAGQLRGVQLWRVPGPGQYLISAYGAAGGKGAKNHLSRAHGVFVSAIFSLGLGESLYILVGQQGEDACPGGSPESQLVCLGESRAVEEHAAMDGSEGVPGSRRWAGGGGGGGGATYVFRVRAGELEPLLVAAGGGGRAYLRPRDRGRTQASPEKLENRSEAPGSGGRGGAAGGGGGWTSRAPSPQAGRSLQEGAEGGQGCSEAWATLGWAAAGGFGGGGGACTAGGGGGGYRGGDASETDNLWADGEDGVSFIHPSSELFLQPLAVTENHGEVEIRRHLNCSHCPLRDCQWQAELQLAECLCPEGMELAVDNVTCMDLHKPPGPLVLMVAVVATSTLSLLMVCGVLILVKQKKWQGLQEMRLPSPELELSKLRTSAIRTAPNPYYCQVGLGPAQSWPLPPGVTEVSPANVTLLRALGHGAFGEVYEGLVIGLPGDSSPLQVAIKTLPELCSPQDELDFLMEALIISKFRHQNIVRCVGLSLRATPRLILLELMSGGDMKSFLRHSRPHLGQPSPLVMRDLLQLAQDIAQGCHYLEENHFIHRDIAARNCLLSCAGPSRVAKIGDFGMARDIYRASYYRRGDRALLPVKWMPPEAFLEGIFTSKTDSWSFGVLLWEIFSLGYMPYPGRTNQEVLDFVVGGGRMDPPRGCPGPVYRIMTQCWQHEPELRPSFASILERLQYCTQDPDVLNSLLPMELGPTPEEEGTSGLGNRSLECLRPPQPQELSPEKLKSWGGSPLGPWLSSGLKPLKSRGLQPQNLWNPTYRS
UniProt Q14416, sequence (whole entry, looked up): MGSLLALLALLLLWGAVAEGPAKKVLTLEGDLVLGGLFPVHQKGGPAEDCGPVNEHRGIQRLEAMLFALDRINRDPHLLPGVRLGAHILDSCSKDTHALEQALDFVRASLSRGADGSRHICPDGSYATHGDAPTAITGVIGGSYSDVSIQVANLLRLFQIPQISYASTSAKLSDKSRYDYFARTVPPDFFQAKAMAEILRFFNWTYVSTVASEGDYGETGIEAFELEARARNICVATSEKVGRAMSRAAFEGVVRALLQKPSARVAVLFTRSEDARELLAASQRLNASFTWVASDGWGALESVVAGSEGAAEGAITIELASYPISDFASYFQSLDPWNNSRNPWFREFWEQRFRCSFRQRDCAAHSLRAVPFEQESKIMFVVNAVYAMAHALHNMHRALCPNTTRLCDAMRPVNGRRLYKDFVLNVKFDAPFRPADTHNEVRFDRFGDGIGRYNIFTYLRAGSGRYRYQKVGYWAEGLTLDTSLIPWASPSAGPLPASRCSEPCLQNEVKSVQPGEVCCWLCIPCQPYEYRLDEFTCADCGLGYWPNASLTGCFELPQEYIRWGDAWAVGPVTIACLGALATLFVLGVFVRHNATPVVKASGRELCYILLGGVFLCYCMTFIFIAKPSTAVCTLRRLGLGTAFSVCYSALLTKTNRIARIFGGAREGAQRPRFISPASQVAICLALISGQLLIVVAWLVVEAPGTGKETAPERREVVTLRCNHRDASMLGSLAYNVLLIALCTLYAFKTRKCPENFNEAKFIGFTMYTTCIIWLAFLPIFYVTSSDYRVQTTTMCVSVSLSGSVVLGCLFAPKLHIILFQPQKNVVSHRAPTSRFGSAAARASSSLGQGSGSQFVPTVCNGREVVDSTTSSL
UniProt P32239, sequence (whole entry, looked up): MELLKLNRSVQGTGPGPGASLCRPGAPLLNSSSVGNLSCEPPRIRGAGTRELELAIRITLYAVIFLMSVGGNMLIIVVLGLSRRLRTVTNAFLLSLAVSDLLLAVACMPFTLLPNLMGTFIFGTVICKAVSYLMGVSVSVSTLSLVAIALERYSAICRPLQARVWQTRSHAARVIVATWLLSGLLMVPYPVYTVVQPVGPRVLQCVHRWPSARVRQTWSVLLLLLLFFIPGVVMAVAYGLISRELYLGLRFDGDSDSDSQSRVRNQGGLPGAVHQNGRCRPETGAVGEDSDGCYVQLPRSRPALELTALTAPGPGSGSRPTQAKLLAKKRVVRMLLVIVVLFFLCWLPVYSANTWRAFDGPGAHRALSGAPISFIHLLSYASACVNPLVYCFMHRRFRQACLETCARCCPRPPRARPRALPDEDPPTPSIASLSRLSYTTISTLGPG

Series 1 — cell line: A-375; concentration: 100 µM; time: 18 h
SMILES	viability [%]
CN1C[C@@H]2c3ccccc3Oc3ccc(Cl)cc3[C@H]2C1 (racemic)	8.2
C=CC1=C(C(=O)O)N2C(=O)[C@@H](NC(=O)/C(=N\O)c3csc(N)n3)[C@H]2SC1	102
NCc1ccc(C(=O)O)cc1	93
CN1C(C(=O)Nc2ccccn2)=C(O)c2sccc2S1(=O)=O	106
Cc1cc(/C=C/C#N)cc(C)c1Nc1ccnc(Nc2ccc(C#N)cc2)n1	15.3
O=C1c2c(O)cccc2Cc2cccc(O)c21	97
NC(=O)c1cc[n+](CC2=C(C(=O)O)N3C(=O)[C@@H](NC(=O)[C@@H](c4ccccc4)S(=O)(=O)[O-])[C@H]3SC2)cc1	71.7
N#CC(c1ccc(Cl)cc1)c1c(Cl)cc(-n2ncc(=O)[nH]c2=O)cc1Cl (stereo not drawn)	35.9

Series 2 — effect on: β-arrestin recruitment; mode: agonist; method: PRESTO-Tango; concentration: 10 µM; baseline: untreated
Compound: N=C(N)NC(=O)c1cnn(-c2cccc3ncccc23)c1C1CC1
target	fold over basal
Neuropeptide Y receptor type 1 (NPY1R, Homo sapiens, UniProt P25929)	1
Gastrin/cholecystokinin type B receptor (CCKBR, Homo sapiens, UniProt P32239)	1.14
Adhesion G-protein coupled receptor D1 (ADGRD1, Homo sapiens, UniProt Q6QNK2)	1.44
G-protein coupled receptor 61 (GPR61, Homo sapiens, UniProt Q9BZJ8)	1.06
Metabotropic glutamate receptor 1 (GRM1, Homo sapiens, UniProt Q13255)	0.94 fold
Metabotropic glutamate receptor 2 (GRM2, Homo sapiens, UniProt Q14416)	1.45 fold
N-formyl peptide receptor 3 (Homo sapiens, UniProt P25089)	0.89 fold
Delta-type opioid receptor (OPRD1, Homo sapiens, UniProt P41143)	1.79

Mixed results
Structure (SMILES)	target or system	assay	setting	scale	quantity	value
c1ccc(-c2[nH]ncc2-c2ccnc3ccccc23)nc1	Leukocyte tyrosine kinase receptor (LTK, Homo sapiens, UniProt P29376)	enzyme activity, inhibitor, radiometric	0.5 µM		remaining activity	92.8%
NC(=O)CN1CCCC1=O	mouse MPNST tumor cells	high-content immunofluorescence imaging, refers to: nuclear SOX9	10 µM, 12 h, mean of 2 replicates	baseline: DMSO control, higher = more nuclear SOX9	nuclear SOX9 intensity	99.2 % of DMSO

For quick reference, copied from above (series 2):
target	fold over basal
Adhesion G-protein coupled receptor D1 (ADGRD1, Homo sapiens, UniProt Q6QNK2)	1.44
